# Measurements of several laboratories.
# UniProt P36107, sequence (whole entry, looked up): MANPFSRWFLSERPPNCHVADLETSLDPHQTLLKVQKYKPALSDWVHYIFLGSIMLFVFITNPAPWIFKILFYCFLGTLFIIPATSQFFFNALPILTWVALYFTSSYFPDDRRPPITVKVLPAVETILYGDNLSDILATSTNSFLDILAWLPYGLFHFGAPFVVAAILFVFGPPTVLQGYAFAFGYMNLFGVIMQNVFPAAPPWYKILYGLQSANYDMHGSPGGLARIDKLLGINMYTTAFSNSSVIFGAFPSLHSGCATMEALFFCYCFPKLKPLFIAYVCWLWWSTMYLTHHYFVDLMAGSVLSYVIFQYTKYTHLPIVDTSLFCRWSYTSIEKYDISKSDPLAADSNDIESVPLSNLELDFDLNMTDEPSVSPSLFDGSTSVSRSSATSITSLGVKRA
# UniProt Q06346, sequence (whole entry, looked up): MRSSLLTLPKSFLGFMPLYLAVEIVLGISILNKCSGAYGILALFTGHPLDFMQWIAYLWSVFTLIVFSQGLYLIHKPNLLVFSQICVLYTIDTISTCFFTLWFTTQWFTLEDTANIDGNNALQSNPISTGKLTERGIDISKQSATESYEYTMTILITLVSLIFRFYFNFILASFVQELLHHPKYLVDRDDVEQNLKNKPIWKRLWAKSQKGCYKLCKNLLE
# UniProt Q9Y2J8, sequence (whole entry, looked up): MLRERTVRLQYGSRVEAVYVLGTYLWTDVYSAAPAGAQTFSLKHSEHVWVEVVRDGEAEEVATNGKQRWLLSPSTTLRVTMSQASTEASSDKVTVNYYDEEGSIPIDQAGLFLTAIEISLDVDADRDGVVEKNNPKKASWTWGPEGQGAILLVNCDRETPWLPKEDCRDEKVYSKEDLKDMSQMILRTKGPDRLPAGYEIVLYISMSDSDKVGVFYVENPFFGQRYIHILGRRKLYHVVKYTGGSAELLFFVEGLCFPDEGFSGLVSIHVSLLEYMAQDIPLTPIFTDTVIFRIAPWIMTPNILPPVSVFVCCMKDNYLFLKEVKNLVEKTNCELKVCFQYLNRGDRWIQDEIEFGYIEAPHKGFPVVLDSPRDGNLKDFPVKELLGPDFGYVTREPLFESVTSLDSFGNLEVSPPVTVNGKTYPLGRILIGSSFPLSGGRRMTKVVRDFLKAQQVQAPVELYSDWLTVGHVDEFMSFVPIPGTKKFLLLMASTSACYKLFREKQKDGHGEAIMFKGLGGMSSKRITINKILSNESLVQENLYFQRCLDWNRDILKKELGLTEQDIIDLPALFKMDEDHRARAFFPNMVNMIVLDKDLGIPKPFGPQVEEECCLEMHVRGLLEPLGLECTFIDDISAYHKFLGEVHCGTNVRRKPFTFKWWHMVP
# UniProt O00418, sequence (whole entry, looked up): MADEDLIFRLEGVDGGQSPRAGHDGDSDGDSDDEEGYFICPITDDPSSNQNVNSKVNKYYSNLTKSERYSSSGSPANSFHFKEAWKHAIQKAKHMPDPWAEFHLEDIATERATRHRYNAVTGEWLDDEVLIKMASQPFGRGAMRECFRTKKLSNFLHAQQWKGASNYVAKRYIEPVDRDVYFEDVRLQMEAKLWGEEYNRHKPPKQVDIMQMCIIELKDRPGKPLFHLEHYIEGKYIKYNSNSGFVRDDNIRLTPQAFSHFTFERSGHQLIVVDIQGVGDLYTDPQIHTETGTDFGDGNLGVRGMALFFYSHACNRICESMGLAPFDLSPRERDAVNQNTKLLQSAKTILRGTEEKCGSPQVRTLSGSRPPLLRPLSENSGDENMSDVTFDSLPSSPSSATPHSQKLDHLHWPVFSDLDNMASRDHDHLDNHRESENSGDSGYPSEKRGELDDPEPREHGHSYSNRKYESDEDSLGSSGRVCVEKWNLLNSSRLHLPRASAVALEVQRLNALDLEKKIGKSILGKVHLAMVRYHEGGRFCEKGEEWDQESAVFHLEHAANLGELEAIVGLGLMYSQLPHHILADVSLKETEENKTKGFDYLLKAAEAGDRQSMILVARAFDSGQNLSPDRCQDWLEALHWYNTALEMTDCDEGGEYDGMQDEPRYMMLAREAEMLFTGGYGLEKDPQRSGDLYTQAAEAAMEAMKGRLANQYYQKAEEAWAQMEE
# UniProt P42336, sequence (whole entry, looked up): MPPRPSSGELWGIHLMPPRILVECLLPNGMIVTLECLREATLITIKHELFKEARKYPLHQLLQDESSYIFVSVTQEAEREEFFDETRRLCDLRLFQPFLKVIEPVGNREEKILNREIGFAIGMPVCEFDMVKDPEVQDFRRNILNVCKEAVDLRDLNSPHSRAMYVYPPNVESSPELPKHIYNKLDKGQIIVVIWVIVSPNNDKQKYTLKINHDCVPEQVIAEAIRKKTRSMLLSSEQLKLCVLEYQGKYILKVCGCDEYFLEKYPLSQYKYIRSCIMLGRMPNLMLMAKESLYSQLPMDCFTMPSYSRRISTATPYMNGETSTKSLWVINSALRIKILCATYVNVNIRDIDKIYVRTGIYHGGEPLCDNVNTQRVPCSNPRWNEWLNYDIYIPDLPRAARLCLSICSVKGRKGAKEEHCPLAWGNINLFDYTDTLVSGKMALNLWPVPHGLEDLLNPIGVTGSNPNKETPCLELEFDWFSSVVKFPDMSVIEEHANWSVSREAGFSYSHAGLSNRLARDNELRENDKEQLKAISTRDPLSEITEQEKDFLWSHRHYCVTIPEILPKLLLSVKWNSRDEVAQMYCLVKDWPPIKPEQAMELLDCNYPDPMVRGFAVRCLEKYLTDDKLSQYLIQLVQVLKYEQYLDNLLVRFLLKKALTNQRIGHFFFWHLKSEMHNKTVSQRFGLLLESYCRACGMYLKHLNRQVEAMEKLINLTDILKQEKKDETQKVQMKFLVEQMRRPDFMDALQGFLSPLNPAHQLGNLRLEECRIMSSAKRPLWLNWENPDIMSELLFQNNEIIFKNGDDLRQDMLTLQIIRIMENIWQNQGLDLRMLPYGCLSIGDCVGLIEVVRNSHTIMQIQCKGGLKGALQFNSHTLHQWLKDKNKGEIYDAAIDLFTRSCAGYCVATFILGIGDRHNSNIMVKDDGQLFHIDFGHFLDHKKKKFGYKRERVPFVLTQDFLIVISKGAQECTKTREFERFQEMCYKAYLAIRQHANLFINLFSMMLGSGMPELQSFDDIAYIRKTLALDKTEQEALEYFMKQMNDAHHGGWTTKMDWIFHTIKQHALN
# UniProt Q16832, sequence (whole entry, looked up): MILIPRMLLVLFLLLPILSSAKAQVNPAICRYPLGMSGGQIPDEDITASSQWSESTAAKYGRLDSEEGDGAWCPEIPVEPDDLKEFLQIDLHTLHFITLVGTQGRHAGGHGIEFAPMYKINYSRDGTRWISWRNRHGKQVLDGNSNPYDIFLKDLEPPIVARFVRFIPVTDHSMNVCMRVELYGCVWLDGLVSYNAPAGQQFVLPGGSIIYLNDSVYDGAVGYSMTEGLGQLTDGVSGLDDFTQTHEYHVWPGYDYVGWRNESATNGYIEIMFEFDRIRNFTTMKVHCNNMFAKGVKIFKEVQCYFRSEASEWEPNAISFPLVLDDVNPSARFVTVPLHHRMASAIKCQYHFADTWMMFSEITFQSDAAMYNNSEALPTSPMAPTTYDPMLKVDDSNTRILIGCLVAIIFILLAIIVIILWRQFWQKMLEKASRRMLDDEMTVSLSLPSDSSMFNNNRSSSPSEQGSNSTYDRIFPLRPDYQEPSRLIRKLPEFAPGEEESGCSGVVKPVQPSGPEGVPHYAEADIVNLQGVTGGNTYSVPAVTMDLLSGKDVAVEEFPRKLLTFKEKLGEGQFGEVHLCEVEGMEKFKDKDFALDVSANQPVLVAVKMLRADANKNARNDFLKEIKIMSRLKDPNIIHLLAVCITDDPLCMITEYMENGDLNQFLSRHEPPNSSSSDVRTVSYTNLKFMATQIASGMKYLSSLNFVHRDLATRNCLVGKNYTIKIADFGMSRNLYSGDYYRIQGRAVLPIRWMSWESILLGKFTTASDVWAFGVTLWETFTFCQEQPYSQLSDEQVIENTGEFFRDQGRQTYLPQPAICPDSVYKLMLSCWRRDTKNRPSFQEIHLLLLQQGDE
# UniProt P11802, sequence (whole entry, looked up): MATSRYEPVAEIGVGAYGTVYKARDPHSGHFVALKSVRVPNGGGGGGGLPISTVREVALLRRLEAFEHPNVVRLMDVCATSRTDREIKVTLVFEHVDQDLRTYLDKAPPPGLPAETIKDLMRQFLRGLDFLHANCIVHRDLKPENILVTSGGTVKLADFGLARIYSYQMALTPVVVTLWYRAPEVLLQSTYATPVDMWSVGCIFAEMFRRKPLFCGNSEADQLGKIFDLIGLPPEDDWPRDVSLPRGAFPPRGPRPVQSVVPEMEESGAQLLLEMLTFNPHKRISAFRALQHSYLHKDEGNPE
# UniProt P15056, sequence (whole entry, looked up): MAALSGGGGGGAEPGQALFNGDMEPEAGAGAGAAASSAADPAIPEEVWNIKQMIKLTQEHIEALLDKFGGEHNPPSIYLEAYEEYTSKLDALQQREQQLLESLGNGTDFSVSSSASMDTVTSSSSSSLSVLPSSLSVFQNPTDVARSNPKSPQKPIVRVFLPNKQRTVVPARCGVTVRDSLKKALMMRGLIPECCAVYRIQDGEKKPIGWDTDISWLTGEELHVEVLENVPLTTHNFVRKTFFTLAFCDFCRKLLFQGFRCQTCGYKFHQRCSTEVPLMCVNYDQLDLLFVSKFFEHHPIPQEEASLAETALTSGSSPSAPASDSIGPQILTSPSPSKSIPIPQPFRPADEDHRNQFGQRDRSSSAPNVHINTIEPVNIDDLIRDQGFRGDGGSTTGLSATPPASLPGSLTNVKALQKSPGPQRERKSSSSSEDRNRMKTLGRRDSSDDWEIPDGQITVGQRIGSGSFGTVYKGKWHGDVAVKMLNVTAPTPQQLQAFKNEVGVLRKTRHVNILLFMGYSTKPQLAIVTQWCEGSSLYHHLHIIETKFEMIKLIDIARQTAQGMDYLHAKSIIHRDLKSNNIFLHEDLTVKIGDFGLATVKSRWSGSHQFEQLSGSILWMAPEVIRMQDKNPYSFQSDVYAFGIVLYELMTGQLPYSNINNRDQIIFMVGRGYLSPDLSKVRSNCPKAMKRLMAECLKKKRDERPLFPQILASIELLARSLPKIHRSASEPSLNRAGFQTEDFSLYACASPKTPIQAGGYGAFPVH
SMILES,target,assay,test system,setting,how to read,quantity,result
CC(C)[C@H]1NC(=O)C[C@H]2/C=C/CCSSC[C@@H](NC1=O)C(=O)N[C@H](Cc1cccc3ccccc13)C(=O)NCC(=O)O2,"CIT (Homo sapiens, UniProt O14578)","enzyme activity, inhibitor",,10 µM,,inhibition,-5.1%
C[C@@H]1NC(=O)[C@H](CCCNC(=N)N)NC(=O)[C@H](Cc2ccc3ccccc3c2)NC(=O)[C@H]2CCCCN2C(=O)[C@@H]([C@H](C)O)NC(=O)[C@H](Cc2ccc(F)cc2)NC(=O)[C@@H](Cc2ccccc2)NC(=O)c2cc3cc(c2)C(=O)NC[C@H](NC(=O)[C@@H](Cc2ccccc2)NC1=O)C(=O)N[C@@H](Cc1ccccc1)C(=O)N[C@@H](Cc1ccc2ccccc2c1)C(=O)N[C@@H](CCCNC(=N)N)C(=O)N[C@@H](CCCNC(=N)N)C(=O)N[C@@H](CCCNC(=N)N)C(=O)N[C@@H](CCCNC(=N)N)C(=O)N[C@H](C(=O)N[C@@H](CCCCNC(=S)Nc1ccc2c(c1)C(=O)OC21c2ccc(O)cc2Oc2cc(O)ccc21)C(N)=O)CNC3=O,"PIN1 (Homo sapiens, UniProt Q13526)",fluorescence anisotropy,,concentration not given,relative to: parent peptide,binding affinity improvement,~2 fold
N[C@H](C(=O)N1CCCC1)C1CCN(c2nccc3c(-c4ncc(Cl)cc4Cl)cccc23)CC1,"PADI2 (Homo sapiens, UniProt Q9Y2J8)",enzyme activity,,"0.0983 µM, high-affinity site, together with: Ca2+ 1.5 mM",,kcat,1.56 s⁻¹
CC[C@@H](C)[C@@H]1NC(=O)[C@@H]2CCCN2C(=O)[C@H](Cc2ccccc2)N(C)C(=O)[C@H](Cc2ccccc2)NC(=O)[C@H](C(C)C)N(C)C(=O)[C@@H]([C@H](C)CC)OC(=O)[C@H](C(C)(C)O)N(C)C(=O)[C@H](CC(C)C)NC(=O)[C@H](C(C)C)N(C)C1=O,"AUR1/KEI1 (Saccharomyces cerevisiae, UniProt P36107+Q06346)","enzyme activity, inhibitor",,concentration not given,relative to: DMSO,normalized IPC synthase activity,0
CN(C)CCCSC(=S)N1CCN(C(=O)/C=C/c2coc3ccccc3c2=O)CC1,"Nucleoprotein (N, Tomato spotted wilt virus, UniProt P25999, R94A/Y184A)","binding, microscale thermophoresis",,31.25 µM,dose series,MST response,1.04 a.u.
CS(C)(=O)=Nc1ccc(-c2ccc(-c3nc4cc(O[C@@H]5CO[C@H]6[C@@H]5OC[C@H]6O)[nH]c4cc3F)cc2)cc1,"EEF2K (Homo sapiens, UniProt O00418)","enzyme activity, inhibitor",,10 µM,,inhibition,-5%
O=C(N[C@@H]1c2ccccc2C[C@H]1N1CCCC1)c1ccc(-c2ccnc3[nH]ccc23)nc1,"MAP3K19 (Homo sapiens, UniProt Q56UN5)","binding, competition with immobilised ligand",,3 µM,,remaining binding,1.2%
C[C@H](NCc1ccc(-c2ccc(C(F)(F)F)cc2)cc1)C(N)=O,"BRAF (Homo sapiens, UniProt P15056)","cell-free assay, competition with immobilised ligand",,1 µM,,inhibition,6%
COc1ccccc1-c1n[nH]c2nc(N[C@H]3CC[C@H](NS(=O)(=O)CC(C)C)CC3)ncc12,"cdc2-related kinase 12 (Leishmania donovani, UniProt A0A3S7WQK2)",kinobead competition pull-down,"Leishmania donovani, cell extract","2 µM, unit not given",relative to: vehicle,remaining binding,0.1
CCC1c2ccsc2CCN1C(=O)Cn1cc(CC2NC(=O)NC2=O)nn1 (stereo not shown),"Genome polyprotein, 3C protease (rhinovirus B14, UniProt P03303)","protease activity, SAMDI-MS",,,,Hill slope,7.06
O=C1NC(=O)c2c1c1cc(F)c[n+]3c1c1c2c2cc(O)ccc2[n]1[Ru-4]312([N]=C=S)[S+]3CC[S+]1CC[S+]2CC3 (stereo not shown),"DDR2 (Homo sapiens, UniProt Q16832)",enzyme activity,,"100 nM, human enzyme, together with: 10 µM ATP",relative to: untreated,remaining activity,92%
CN(C)[C@H]1C[C@@]23CC[C@@]4(O2)C(=CC[C@]2(C)[C@@H](c5ccc6ccncc6c5)CC[C@H]24)C=C3[C@@H](O)[C@@H]1O,"CDK4 (Homo sapiens, UniProt P11802)","ATP probe labelling, inhibitor, KiNativ profiling",,1 µM,,inhibition,2.4%
CCOC(=O)[C@@H]1Cc2c(cc([N+](=O)[O-])cc2[N+](=O)[O-])[C@H](O)[C@]12C(=O)Nc1ccc(Br)cc12,"PIK3CA (Homo sapiens, UniProt P42336)","binding, competition with immobilised ligand",,0.1 µM,,remaining binding,100%

# Excerpt of the above:
SMILES,target,assay,test system,setting,how to read,quantity,result
CCOC(=O)[C@@H]1Cc2c(cc([N+](=O)[O-])cc2[N+](=O)[O-])[C@H](O)[C@]12C(=O)Nc1ccc(Br)cc12,"PIK3CA (Homo sapiens, UniProt P42336)","binding, competition with immobilised ligand",,0.1 µM,,remaining binding,100%
CC[C@@H](C)[C@@H]1NC(=O)[C@@H]2CCCN2C(=O)[C@H](Cc2ccccc2)N(C)C(=O)[C@H](Cc2ccccc2)NC(=O)[C@H](C(C)C)N(C)C(=O)[C@@H]([C@H](C)CC)OC(=O)[C@H](C(C)(C)O)N(C)C(=O)[C@H](CC(C)C)NC(=O)[C@H](C(C)C)N(C)C1=O,"AUR1/KEI1 (Saccharomyces cerevisiae, UniProt P36107+Q06346)","enzyme activity, inhibitor",,concentration not given,relative to: DMSO,normalized IPC synthase activity,0
